Experimental data gathered from unrelated publications.
Parts stem from different laboratories: compare values within a part only.
Chain of UniProt P28222 (whole entry, looked up): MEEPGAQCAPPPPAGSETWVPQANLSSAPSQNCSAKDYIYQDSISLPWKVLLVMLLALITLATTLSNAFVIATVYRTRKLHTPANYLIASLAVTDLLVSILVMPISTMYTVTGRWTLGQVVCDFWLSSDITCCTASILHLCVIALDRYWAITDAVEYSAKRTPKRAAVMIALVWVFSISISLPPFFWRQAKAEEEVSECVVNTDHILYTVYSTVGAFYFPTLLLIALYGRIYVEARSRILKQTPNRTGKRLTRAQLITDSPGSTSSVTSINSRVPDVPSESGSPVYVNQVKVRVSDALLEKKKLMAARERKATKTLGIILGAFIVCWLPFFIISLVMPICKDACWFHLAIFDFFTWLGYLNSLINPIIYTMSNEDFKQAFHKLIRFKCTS
Chain of UniProt P00519 (whole entry, unmodified, looked up): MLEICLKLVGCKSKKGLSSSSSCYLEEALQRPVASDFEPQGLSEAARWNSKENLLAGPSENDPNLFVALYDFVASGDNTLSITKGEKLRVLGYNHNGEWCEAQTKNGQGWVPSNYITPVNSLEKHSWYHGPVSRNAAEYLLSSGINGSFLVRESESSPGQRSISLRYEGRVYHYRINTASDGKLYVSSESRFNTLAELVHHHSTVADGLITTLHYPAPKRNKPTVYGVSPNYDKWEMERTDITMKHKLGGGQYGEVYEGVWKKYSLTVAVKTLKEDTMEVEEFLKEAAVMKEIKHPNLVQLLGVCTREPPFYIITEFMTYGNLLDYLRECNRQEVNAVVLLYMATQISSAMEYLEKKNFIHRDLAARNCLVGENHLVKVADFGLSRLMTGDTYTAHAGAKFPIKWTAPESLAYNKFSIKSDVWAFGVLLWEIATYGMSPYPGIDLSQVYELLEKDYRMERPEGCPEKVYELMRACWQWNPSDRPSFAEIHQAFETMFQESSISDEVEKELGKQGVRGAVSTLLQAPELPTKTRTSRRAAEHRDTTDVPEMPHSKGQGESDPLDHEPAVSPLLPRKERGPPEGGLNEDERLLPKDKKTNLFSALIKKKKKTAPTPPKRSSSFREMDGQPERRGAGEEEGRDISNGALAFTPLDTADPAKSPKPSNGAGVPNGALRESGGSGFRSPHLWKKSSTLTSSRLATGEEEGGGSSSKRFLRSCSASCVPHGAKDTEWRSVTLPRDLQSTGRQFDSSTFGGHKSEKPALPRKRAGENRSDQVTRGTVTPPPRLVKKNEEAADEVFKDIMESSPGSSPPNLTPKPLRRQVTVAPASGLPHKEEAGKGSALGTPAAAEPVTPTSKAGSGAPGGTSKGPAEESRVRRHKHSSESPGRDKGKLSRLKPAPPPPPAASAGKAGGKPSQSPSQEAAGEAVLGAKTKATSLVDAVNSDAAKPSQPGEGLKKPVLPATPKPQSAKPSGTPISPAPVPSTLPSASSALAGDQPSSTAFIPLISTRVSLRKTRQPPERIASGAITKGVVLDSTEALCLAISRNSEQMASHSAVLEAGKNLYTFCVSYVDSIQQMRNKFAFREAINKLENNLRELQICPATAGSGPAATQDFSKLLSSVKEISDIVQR

Study 1 — read-out: enzyme activity; action: inhibitor; tested at: 0.5 µM; relative to: control; measurement: remaining activity
Target: Serine/threonine-protein kinase PLK2 (PLK2, Homo sapiens, UniProt Q9NYY3)
Chain of UniProt Q9NYY3 (whole entry, looked up): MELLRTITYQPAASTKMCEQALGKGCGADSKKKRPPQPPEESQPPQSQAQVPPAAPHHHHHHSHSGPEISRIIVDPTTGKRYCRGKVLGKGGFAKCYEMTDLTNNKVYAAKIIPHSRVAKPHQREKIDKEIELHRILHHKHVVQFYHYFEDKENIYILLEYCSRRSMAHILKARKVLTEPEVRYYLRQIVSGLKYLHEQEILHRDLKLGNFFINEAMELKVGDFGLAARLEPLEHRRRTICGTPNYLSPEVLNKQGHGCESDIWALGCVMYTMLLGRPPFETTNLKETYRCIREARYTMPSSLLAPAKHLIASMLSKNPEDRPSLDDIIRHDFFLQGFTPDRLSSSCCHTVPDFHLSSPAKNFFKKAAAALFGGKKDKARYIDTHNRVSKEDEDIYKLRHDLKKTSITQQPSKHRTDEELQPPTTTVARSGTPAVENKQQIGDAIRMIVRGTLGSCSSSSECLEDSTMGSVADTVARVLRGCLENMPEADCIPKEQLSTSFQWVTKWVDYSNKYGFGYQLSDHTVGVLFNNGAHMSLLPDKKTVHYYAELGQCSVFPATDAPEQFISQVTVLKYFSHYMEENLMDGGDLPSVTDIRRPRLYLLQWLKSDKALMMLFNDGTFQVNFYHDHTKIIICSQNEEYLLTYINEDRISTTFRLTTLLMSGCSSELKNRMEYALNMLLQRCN
SMILES = O=C(O)c1ccc2c3c1cccc3c(=O)n1c3ccccc3nc21; result = 97%
SMILES = O=C1NC(=O)C(c2cn(CCCn3ccnc3)c3ccccc23)=C1Nc1ccccc1; result = 102%
SMILES = CNC(=O)c1cc(Oc2ccc(NC(=O)Nc3ccc(Cl)c(C(F)(F)F)c3)cc2)ccn1; result = 101%
SMILES = Cn1sc(=O)n(Cc2ccccc2)c1=O; result = 106%
SMILES = O=C1NC(=O)C(c2cn(CCCO)c3ncccc23)=C1c1cnccn1; result = 104%
SMILES = Cc1ccc(Nc2nccc(N(C)c3ccc4c(C)n(C)nc4c3)n2)cc1S(N)(=O)=O; result = 101%
SMILES = COc1ccc(C(=O)Nc2sc3c(c2C(N)=O)CCCC3)cc1OC; result = 106%
SMILES = Cc1nc(-c2ccccc2)c(-c2ccncc2)o1; result = 106%
SMILES = C#Cc1cccc(Nc2ncnc3cc(OCCOC)c(OCCOC)cc23)c1; result = 104%
SMILES = Nc1ncnc2n[nH]c(Nc3ccc(F)cc3)c12; result = 101%
SMILES = COc1cc2ncnc(Nc3ccc(F)c(Cl)c3)c2cc1OCCCN1CCOCC1; result = 100%
SMILES = CC(C)[C@H](CO)Nc1nc(Nc2cc(N)cc(Cl)c2)c2ncn(C(C)C)c2n1; result = 92%
SMILES = COc1ccc(CNC(=O)Nc2ncc([N+](=O)[O-])s2)cc1; result = 104%
SMILES = O=C(CCCc1ccc(-c2ccccc2F)cc1)Nc1ccc(O)cc1; result = 102%
SMILES = OCC(O)CCON=C1C(c2c(O)[nH]c3ccccc23)=Nc2ccccc21 (stereo not shown); result = 105%

Study 2 — organism: Sarcocystis neurona; read-out: parasite growth; tested at: 10 µM; notes: secondary screen; measurement: inhibition
SMILES = CCC(C)(C)C(=O)O[C@H]1C[C@@H](C)C=C2C=C[C@H](C)[C@H](CC[C@@H]3C[C@@H](O)CC(=O)O3)[C@H]21; result = -46.5%
SMILES = O=C1CN(/N=C/c2ccc(-c3ccc([N+](=O)[O-])cc3)o2)C(O)=N1; result = 48.3%
SMILES = CC(C)(C)NCC(O)c1ccc(O)c(CO)c1.CC(C)(C)NCC(O)c1ccc(O)c(CO)c1.O=S(=O)(O)O (stereo not shown); result = -31.9%
SMILES = CCCNCC(O)COc1ccccc1C(=O)CCc1ccccc1 (stereo not shown); result = 63.8%
SMILES = CCc1cccc2c3c([nH]c12)C(CC)(CC(=O)O)OCC3 (stereo not shown); result = -43%

Study 3 — cell line: HuT78; tested at: 2 µM; time: 48 h; relative to: untreated; measurement: viability
Structure (SMILES) = CC(C)N(CCC(=O)c1ccc2ccccc2c1)Cc1ccccc1; result = 89.9%
Structure (SMILES) = O=C1NC(=O)/C(=C/c2ccc3c(c2)OC(F)(F)O3)S1; result = 123%
Structure (SMILES) = Cc1ccc(NC(=O)c2ccc(CN3CCN(C)CC3)cc2)cc1Nc1nc(-c2cccnc2)cs1; result = 138%
Structure (SMILES) = CCN1CCN(Cc2ccc(-c3cc4c(N[C@H](C)c5ccccc5)ncnc4[nH]3)cc2)CC1; result = 141%
Structure (SMILES) = Cn1sc(=O)n(Cc2ccccc2)c1=O; result = 74.7%
Structure (SMILES) = O=C(c1ccc(F)c(F)c1Nc1ccc(I)cc1F)N1CC(O)([C@@H]2CCCCN2)C1; result = 92.2%
Structure (SMILES) = S=C(NCc1ccc2c(c1)OCO2)N1CCN(c2ncnc3c2oc2ccccc23)CC1; result = 87.1%

Study 4 — cell line: HaCaT; tested at: 100 µM; time: 36 h; measurement: viability
SMILES = CCOc1ccc(Cc2cc([C@@H]3O[C@H](CO)[C@@H](O)[C@H](O)[C@H]3O)ccc2Cl)cc1; result = 96.4%
SMILES = CC(=O)Nc1c(I)c(NC(C)=O)c(I)c(C(=O)O)c1I; result = 87.7%
SMILES = Cc1c(-c2ccc(O)cc2)n(Cc2ccc(OCCN3CCCCCC3)cc2)c2ccc(O)cc12; result = 8.59%
SMILES = CCOc1nc2cccc(C(=O)OCc3oc(=O)oc3C)c2n1Cc1ccc(-c2ccccc2-c2noc(=O)[nH]2)cc1; result = 97%
SMILES = S=C1SCN(Cc2ccccc2)CN1Cc1ccccc1; result = 6.02%

Further values, each from its own experiment
Compound = N#CC1(c2ccccn2)CCN(Cc2cc(C(=O)O)c(=O)n3ccccc23)CC1; target = Tyrosine-protein kinase ABL1, non-phosphorylated (ABL1, Homo sapiens, UniProt P00519, F317I); assay = binding, competition with immobilised ligand; conditions = 1 µM; measurement = remaining binding; result = 65%
Compound = Nc1nc(NCc2ccccc2)nc(-c2cccc(CO)c2)n1; target = 5-hydroxytryptamine receptor 1B (HTR1B, Homo sapiens, UniProt P28222); assay = ligand displacement; conditions = 10 µM; measurement = inhibition; result = -2.86%

A few entries again (study 1):
SMILES = O=C(CCCc1ccc(-c2ccccc2F)cc1)Nc1ccc(O)cc1; result = 102%
SMILES = COc1ccc(CNC(=O)Nc2ncc([N+](=O)[O-])s2)cc1; result = 104%
SMILES = COc1cc2ncnc(Nc3ccc(F)c(Cl)c3)c2cc1OCCCN1CCOCC1; result = 100%
